Results gathered from unrelated publications.
Lines come from different studies, so protocols differ. Values joined by “and” are separate records of one study, mostly repeats; a detail may differ. ± gives the spread as reported.
ABCG2: Broad substrate specificity ATP-binding cassette transporter ABCG2 (ABCG2, Homo sapiens, UniProt Q9UNQ0)
Sequence of UniProt Q9UNQ0 (whole entry, looked up): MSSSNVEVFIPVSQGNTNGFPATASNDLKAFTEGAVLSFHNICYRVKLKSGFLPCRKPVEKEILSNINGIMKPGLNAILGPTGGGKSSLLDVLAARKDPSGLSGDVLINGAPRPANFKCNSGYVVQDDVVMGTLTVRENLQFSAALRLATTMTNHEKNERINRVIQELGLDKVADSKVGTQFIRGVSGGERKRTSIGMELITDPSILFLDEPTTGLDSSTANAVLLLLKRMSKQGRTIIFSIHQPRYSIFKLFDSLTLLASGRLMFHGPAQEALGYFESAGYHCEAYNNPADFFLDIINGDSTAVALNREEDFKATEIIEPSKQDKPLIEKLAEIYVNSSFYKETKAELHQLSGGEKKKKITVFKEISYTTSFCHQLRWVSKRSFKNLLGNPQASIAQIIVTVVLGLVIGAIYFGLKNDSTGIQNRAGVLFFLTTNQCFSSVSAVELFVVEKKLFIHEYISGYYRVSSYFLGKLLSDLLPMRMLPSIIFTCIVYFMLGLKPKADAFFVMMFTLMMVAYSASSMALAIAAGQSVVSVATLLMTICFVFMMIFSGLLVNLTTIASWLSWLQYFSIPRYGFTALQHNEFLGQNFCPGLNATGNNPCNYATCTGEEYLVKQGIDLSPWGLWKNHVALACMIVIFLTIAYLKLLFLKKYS
Sequence of UniProt P16234 (whole entry, looked up): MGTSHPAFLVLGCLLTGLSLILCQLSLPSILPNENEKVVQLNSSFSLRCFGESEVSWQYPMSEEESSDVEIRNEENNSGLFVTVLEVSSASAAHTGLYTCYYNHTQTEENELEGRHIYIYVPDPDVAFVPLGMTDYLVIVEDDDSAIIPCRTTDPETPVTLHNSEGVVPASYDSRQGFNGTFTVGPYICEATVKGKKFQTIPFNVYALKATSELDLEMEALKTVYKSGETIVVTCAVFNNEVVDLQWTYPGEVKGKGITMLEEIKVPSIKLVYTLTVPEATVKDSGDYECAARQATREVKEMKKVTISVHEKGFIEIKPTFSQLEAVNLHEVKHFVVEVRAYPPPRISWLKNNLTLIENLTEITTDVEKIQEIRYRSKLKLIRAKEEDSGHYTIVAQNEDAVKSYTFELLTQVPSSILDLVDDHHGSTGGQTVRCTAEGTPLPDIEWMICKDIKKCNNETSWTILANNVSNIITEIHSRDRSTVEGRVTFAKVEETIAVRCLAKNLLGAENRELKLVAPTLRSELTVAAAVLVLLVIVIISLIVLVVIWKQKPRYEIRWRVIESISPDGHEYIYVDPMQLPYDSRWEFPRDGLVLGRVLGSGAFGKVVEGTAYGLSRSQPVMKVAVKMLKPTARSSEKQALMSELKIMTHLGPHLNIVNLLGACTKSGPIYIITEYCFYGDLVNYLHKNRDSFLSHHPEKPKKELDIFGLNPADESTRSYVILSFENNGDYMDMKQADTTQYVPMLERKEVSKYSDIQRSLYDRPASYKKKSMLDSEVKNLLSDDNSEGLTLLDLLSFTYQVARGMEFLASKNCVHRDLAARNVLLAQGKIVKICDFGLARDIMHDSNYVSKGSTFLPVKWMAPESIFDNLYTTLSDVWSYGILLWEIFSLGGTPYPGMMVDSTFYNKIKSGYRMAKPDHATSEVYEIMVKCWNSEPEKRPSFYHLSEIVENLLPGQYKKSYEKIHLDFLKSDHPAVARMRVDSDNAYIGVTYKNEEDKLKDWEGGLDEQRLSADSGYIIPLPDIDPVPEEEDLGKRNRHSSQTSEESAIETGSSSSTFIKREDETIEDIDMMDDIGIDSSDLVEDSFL
Sequence of UniProt Q9NPD5 (whole entry, looked up): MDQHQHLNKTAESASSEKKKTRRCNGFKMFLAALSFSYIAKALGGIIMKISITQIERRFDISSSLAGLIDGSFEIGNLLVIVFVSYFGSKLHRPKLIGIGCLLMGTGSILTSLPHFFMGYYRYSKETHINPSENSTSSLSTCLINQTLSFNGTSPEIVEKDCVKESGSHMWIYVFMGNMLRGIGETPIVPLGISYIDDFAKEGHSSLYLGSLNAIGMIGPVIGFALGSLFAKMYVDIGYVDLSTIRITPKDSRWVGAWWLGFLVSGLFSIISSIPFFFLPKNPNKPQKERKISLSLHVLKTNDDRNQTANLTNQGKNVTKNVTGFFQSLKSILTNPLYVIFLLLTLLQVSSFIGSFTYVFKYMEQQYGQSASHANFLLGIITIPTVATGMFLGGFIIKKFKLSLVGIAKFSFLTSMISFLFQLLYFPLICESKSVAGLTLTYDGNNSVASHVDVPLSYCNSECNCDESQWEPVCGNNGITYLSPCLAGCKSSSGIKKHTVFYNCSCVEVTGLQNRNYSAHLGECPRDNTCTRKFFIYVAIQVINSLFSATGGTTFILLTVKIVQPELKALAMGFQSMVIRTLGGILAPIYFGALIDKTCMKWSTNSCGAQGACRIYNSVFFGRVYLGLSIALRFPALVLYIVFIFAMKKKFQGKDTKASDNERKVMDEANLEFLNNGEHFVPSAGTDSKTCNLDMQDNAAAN

SMILES | target or system | assay | test system | setting | scale | quantity | value
CN1CCCNC(=O)c2cccc(c2)C(=O)NCCCN(C)CCCNc2cccc3c2C(=O)c2cccc(c2C3=O)NCCC1 | SAS | cell growth or viability, CCK-8 | – | 15 µM, 48 h | – | viability | 4.54%
COc1cccc(OC)c1-c1cc(C(=O)NC2(C(=O)O)C3CC4CC(C3)CC2C4)nn1-c1ccc(C(=O)N(C)CCCN(C)C(=O)[C@H](CCCCNC(=O)[C@H](CC(C)C)NC(=O)C2OC2C(=O)O)NC(=O)CN2CCN(CC(=O)[O-])CCN(CC(=O)[O-])CCN(CC(=O)[O-])CC2)cc1C(C)C.[177Lu+3] (mixture of isomers) | HT-29 tumour model | – | host not given, blood | 4 h, tumour-bearing | – | tracer uptake | 1.04 %ID/g
CC(C)C[C@@H](NC(=O)[C@@H](CC(C)C)NC(=O)[C@@H](CC(=O)O)NC(=O)[C@@H](CC(C)C)NC(=O)[C@@H](CC(C)C)NC(=O)[C@@H](CC(C)C)NC(=O)[C@H](NC(=O)[C@@H](CC(=O)O)NC(=O)[C@H](NC(=O)[C@H]1CCCN1C(=O)[C@@H](Cc1ccccc1)NC(=O)[C@@H](CC(C)C)NC(=O)[C@@H](CC(C)C)NC(=O)[C@@H](CC(=O)O)NC(=O)[C@@H](CC(C)C)NC(=O)[C@@H](Cc1ccc(O)cc1)NC(=O)[C@@H](C)NC(=O)[C@@H](CCCNC(=N)N)NC(=O)[C@@H](Cc1c[nH]c2ccccc12)NC(=O)[C@H]1CCCN1C(=O)[C@@H](CC(N)=O)NC(=O)[C@@H](CCC(N)=O)NC(=O)[C@@H](CC(=O)O)NC(=O)[C@@H](CC(=O)O)NC(=O)[C@@H](CSC1CC(=O)N(CCNC(=O)CN2CCN(CC(=O)O)CCN(CC(=O)O)CC2)C1=O)NC(=O)[C@@H](C)N)[C@H](C)O)[C@H](C)O)C(=O)N[C@H](Cc1c[nH]c2ccccc12)C(=O)O (some centres unmarked) [copper-64 labelled] | – | – | C57BL/6 mice, female, B16-F10 melanoma, tumor | intravenous, 14.5 h | – | tissue uptake | 11.2 %ID/g
CCCCCC(=O)N[C@@H](Cc1ccc(NC(=O)OC(C)(C)C)cc1)C(=O)N[C@@H](CCCC)C(=O)N[C@@H](CC(C)C)C(=O)[C@@]1(C)CO1 | Trypanosoma brucei brucei | – | HepG2 cells, Lister 427 | – | relative to: HepG2 CC50 over T. brucei EC50 | selectivity index | < 1
N#Cc1cccc(-c2ccc(=O)n(Cc3cccc(-c4ncc(OCC5CCN(CC(=O)N6CCN(c7ccc8c(c7)C(=O)N(C7CCC(=O)NC7=O)C8=O)CC6)CC5)cn4)c3)n2)c1 (centres unmarked) | Caco-2 | transwell monolayer | – | 2 µM, 120 min, pH 7.4, 0.1% DMSO, with: Ko143 10 µM | – | Papp A-B | 0.07 ± 0.06 ×10⁻⁶ cm/s
CNC(=O)C1CCCN(C(=O)C2CC3CCC2N3C(=O)[C@@H]2C[C@@H](O)CN2C(=O)NCc2cccc(Cl)c2F)C1 (mixture of isomers) | CYP3A4 (human) | inhibitor, time-dependent inhibition | – | 5.56 µM, preincubated with NADPH, with: testosterone substrate | relative to: negative control | remaining activity | 101%
C=C(NC(=O)c1csc(-c2nc3c(cc2O)-c2nc(cs2)C(=O)NC(C(C)O)C(=O)NC(=C(C)OC)c2nc(cs2)C(=O)NC2c4nc(cs4)C(=O)NC(COC(=O)c4c5c6c(cccc6n4O)COC(=O)C(OC4CC(C)(O)C(N(C)C)C(C)O4)C2OC5)c2nc-3cs2)n1)C(N)=O (centres unmarked) | – | – | cynomolgus monkey, male, plasma | intravenous infusion, 9 mg/kg single dose | – | volume of distribution | 1.6 L/kg
CCCCCC(=O)N[C@@H](Cc1ccccc1)C(=O)N[C@@H](CCCC)C(=O)N[C@@H](CC(C)C)C(=O)[C@@]1(C)CO1 | Trypanosoma brucei brucei | – | HepG2 cells, Lister 427 | – | relative to: HepG2 CC50 over T. brucei EC50 | selectivity index | < 1
CC(C)OCCOCc1ccc(OCC(O)CN(N=O)C(C)C)cc1 (centres unmarked) | Salmonella typhimurium | Ames test | TA100 | 5000 µg/plate, without metabolic activation | relative to: solvent control | revertant fold increase | 0.6 fold
CC(C)C[C@H](NC(=O)[C@H](Cc1ccc(O)cc1)NC(=O)[C@@H](CCCNC(=N)N)NC(=O)[C@@H](CO)NC(=O)[C@H](Cc1ccccc1)NC(=O)[C@H](CC1CCCCC1)NC(=O)[C@H](CC(=O)O)NC(=O)CN1CCN(CC(=O)O)CCN(CC(=O)O)CCN(CC(=O)O)CC1)C(=O)N[C@@H](Cc1c[nH]c2ccccc12)C(=O)N[C@@H](CO)C(=O)O [copper-64 labelled] | – | – | human, lower large intestine | concentration not given, 1 h | – | activity concentration | 888 Bq/mL and 1850 Bq/mL and 1660 Bq/mL and 2160 Bq/mL and 1830 Bq/mL and 2000 Bq/mL
Cc1nn(-c2cccc(N)c2)c(=O)c2cnc(Nc3ccc(N4CCNCC4)cc3)nc12 | Platelet-derived growth factor receptor alpha (PDGFRA, Homo sapiens, UniProt P16234) | enzyme activity, inhibitor | – | – | – | IC50 | 2420 nM
O=C1NC2(CC2)COc2ncc(F)cc2[C@H]2COCCN2c2ccn3ncc1c3n2 | Salmonella typhimurium | Ames test | TA98 | 150 µg/plate, 48 h, with: without S9 | – | revertant colonies | 11 ± 2 revertants/plate
CC(C)C[C@H](NC(=O)[C@@H](CCCCNC(=O)[C@@H](Cc1ccccc1)NC(=O)CCCCCNC(=O)CN1CCN(CC(=O)O)CCN(CC(=O)O)CCN(CC(=O)O)CC1)NC(=O)[C@H](Cc1ccc(O)cc1)NC(=O)[C@H](CO)NC(=O)[C@H](Cc1c[nH]c2ccccc12)NC(=O)[C@H](Cc1c[nH]cn1)NC(=O)[C@@H]1CCC(=O)N1)C(=O)N[C@@H](CCCNC(=N)N)C(=O)N1CCC[C@H]1C(=O)NCC(N)=O [indium-111 labelled] | – | – | female athymic nude mice, muscle | intravenous, 0.037 MBq, 0.5 h | – | tissue uptake | 0.16 ± 0.1 %ID/g
O=C(Nc1cnccc1-c1ccc([18F])nc1)c1ccnc(NC(=O)C2CC2)c1 | – | – | mice, transgenic, GSK-3β, early-stage, muscle | intravenous, dose not given, 120 min | – | SUV | 0.359
N#C[C@@H]1CC(F)(F)CN1C(=O)CNC(=O)c1ccnc2c(NC(=O)[C@H](CCCCNC(=O)CCOCCOCCOCCOCCOCCOCCNC(=O)CN3CCN(CC(=O)[O-])CCN(CC(=O)[O-])CCN(CC(=O)[O-])CC3)NC(=O)CCCc3ccc(I)cc3)cccc12.[177Lu+3] | U-87 MG tumour model | – | host not given, blood | 24 h, tumour-bearing | – | tracer uptake | 4.22 %ID/g
C[n+]1ccc(/C=N/NC(=O)c2ccc3ccc(C(=O)N/N=C/c4cc[n+](C)c5ccccc45)nc3n2)c2ccccc21 | MYC parallel G4 DNA | FRET melting | – | 1 µM, DNA 0.2 µM, with: duplex DNA competitor 10 µM | – | ΔTm | 15.3 ± 0.3 °C
CNc1nc(N)nc2c1ncn2[C@@H]1O[C@H](CO)[C@@H](O)[C@@]1(C)F | ABCG2 | bidirectional transport | MDCKII transfected with human BCRP | 10 µM | – | efflux ratio | 3.97 ± 0.29
O=C1c2sc(-c3ccc(N4CCC(F)C4)nc3F)nc2CCN1c1cccnc1 (centres unmarked) | – | – | CD1 mouse, brain | i.v., dose not given, 0.5 h | – | concentration | 103 ng/g and 105 ng/g and 85.3 ng/g
COc1cccc(OC)c1-c1cc(C(=O)NC2(C(=O)O)C3CC4CC(C3)CC2C4)nn1-c1ccc(C(=O)N(C)CCOCCN(C)C(=O)[C@H](CCCCNC(=O)[C@H](CC(C)C)NC(=O)C2OC2C(=O)O)NC(=O)CN2CCN(CC(=O)[O-])CCN(CC(=O)[O-])CCN(CC(=O)[O-])CC2)cc1C(C)C.[177Lu+3] (mixture of isomers) | HT-29 tumour model | – | host not given, stomach | 7 days, tumour-bearing | – | tracer uptake | 0.13 %ID/g
N#C[C@@H]1CCCN1C(=O)CNC(=O)c1ccnc2ccc(OCCCN3CCN(C(=O)CCc4ccc(O)c(CN5CCN6CC(=O)[O][Al-]([18F])([O]C(=O)C5)[O]c5ccc(CCC(=O)N7CCN(CCCOc8ccc9nccc(C(=O)NCC(=O)N%10CCC[C@H]%10C#N)c9c8)CC7)cc5C6)c4)CC3)cc12 (some centres unmarked) | U-87 MG tumour model | – | host not given, bone | 1 h, tumour-bearing | – | tracer uptake | 10.2 %ID/g
O=C(N/N=C/c1cc[n+](Cc2ccccc2)c2ccccc12)c1cccc(C(=O)N/N=C/c2cc[n+](Cc3ccccc3)c3ccccc23)n1 | MYC parallel G4 DNA | FRET melting | – | 1 µM, DNA 0.2 µM | – | ΔTm | 11 ± 0.4 °C
CCCC[C@H](NC(=O)CCCCCCCNC(=O)CN1CCN(CC(=O)O)CCN(CC(=O)O)CC1)C(=O)N[C@H]1CC(=O)NCCCC[C@@H](C(N)=O)NC(=O)[C@H](Cc2c[nH]c3ccccc23)NC(=O)[C@H](CCCNC(=N)N)NC(=O)[C@@H](Cc2ccccc2)NC(=O)[C@H](Cc2c[nH]cn2)NC1=O [technetium-99m labelled] | – | – | C57 mouse, kidneys | intravenous, 0.037 MBq, 0.5 h | – | tissue uptake | 5.32 ± 0.28 %ID/g
CCN(CC)CC#CCNc1ccnc2cc(Cl)ccc12 | Salmonella typhimurium | mini-Ames test | TA97a | 250.0 µg/well, without S9 | – | revertants per well | 0
COC1CN([C@H]2CC[C@H]([C@@]3(C)Oc4c(Cl)cc(C(=O)NCc5c(SC)cc(C)[nH]c5=O)c(C)c4O3)CC2)C1 | – | RNA-seq, measured: STAC mouse homolog | mouse, HT-1376 xenograft, whole blood | dose not given | relative to: vehicle | log2 fold change | 1.88
N#C[C@@H]1CC(F)(F)CN1C(=O)CNC(=O)c1ccnc2c(NC(=O)CCOCCOCCOCCOCCOCCOCCNC(=O)[C@H](CCCCNC(=O)CN3CCN(CC(=O)[O-])CCN(CC(=O)[O-])CCN(CC(=O)[O-])CC3)NC(=O)CCCc3ccc(I)cc3)cccc12.[177Lu+3] | U-87 MG tumour model | – | host not given, muscle | 1 h, tumour-bearing | – | tracer uptake | 1.54 %ID/g
CNc1nc(N)nc2c1ncn2[C@@H]1O[C@H](CO[P@](=O)(O)N[C@@H](C)C(=O)O)[C@@H](O)[C@@]1(C)F | ABCG2 | bidirectional transport | MDCKII transfected with human BCRP | 10 µM | – | Papp A to B | 1.11 ± 0.12 ×10⁻⁶ cm/s
CC(C)Cc1ccc(C(C)C(=O)N[C@@H](CCCCNC(=O)CCOCCOCCOCCOCCOCCOCCNC(=O)CN2CCN(CC(=O)[O-])CCN(CC(=O)[O-])CCN(CC(=O)[O-])CC2)C(=O)Nc2cccc3c(C(=O)NCC(=O)N4CC(F)(F)C[C@H]4C#N)ccnc23)cc1.[177Lu+3] (some centres unmarked) | U-87 MG tumour model | – | host not given, heart | 24 h, tumour-bearing | – | tracer uptake | 0.53 %ID/g
O=C1C2CC3CC1CC(C(=O)N1CCN(c4ccc([N+](=O)[O-])c5ncccc45)CC1)(C3)C2 | Salmonella typhimurium | Ames test | TA100 | 0.13 µg/well, with S9 | relative to: vehicle | revertant fold increase | 0.9
O=C(c1ccc(OCCN2CCCCC2)cc1)c1c(-c2ccc(O)cc2)sc2cc(O[C@@H]3O[C@H](C(=O)O)[C@@H](O)[C@H](O)[C@H]3O)ccc12 | Solute carrier organic anion transporter family member 1B3 (SLCO1B3, Homo sapiens, UniProt Q9NPD5) | – | HEK293 expressing SLCO1B3 | pH 7.4 | – | Vmax | 21.2 pmol/min/mg protein
